{"data": "Published values collected from several papers", "note": "Each numbered part is a random draw from the data of one study; scales do not carry over between parts."}
{"data": "Study 1", "target": "RING finger protein unkempt homolog, zinc fingers 1-6, GST-SBP tag (UNK, Homo sapiens, UniProt Q9C0B0, residues 30-357)", "method": "RNA Bind-n-Seq", "molecule type": "RNA", "matrix": "in vitro", "concentration": "not given", "setting": "RNA with constant flanks, ends assumed", "reference": "input RNA pool", "direction": "higher = stronger binding", "all sequences stand within": "GGGAGUUCUACAGUCCGACGAUC … CAACAGAGGAUUGAGCAUCA", "chain of UniProt Q9C0B0 (30-357, looked up)": "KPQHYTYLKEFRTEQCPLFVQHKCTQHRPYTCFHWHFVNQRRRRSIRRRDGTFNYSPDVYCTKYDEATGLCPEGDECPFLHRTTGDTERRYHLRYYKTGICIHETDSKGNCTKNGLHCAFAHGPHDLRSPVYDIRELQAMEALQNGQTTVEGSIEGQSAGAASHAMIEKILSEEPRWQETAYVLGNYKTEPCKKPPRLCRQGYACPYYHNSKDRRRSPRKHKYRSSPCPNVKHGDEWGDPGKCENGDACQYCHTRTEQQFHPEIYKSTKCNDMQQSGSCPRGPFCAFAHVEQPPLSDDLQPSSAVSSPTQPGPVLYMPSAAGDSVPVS"}
{"Sequence": "GUGGUUGGGGUGUGAGUGGGCGUUUUCUUAAUGAUAUGCUGCUAGGAUUUCAUGGGCAGCAACCGCCCCGAAGUCUAUGAUCUAGACUCCAGAUUCCAGAGGGACCUUAAGGUUCCCUUC", "bound/input enrichment [ratio]": 0.162}
{"Sequence": "UCACUUUGUGAUUAUUUCACUUUAGAUGCUGAUGAUUUGUUUUUGUAUUUUUAAUGGGGGCCGCAGCUGGACUACCCACGUUCUCACACCCACCGUCCGCCCUGCUCCUCCCUGGCUGCC", "bound/input enrichment [ratio]": 0.277}
{"Sequence": "AAUUUUUUUGGUAUUUUUUUAAACGUUCGUGGAUGAAUGCCAACUUUCAGACGGAGCCCACUCCGCUUGUCCACAUGUAUCUCAAUGCCAACCCUCCAUUUUUCCUCUCCAGAUAUUUUU", "bound/input enrichment [ratio]": 0.526}
{"Sequence": "AAUUAUGUACAUCAAAGAUAUCCUAGAUGUAGAGACGAUGGUGUCUGGGAUAAAAGGCAGAGUCCGUUUCUCUCAUAGCAUAUAUUGGCAGAAAUGGUUCUGCAAGAUGCUCAAAGGCAU", "bound/input enrichment [ratio]": 0.376}
{"Sequence": "UUUUUAUUAUACAUUUAUUUUUUGUCGUUAUAUACUGGUGUGUGAUCCAAGUUAUACAUGAACCGAAAAAGAUGGUGUUAAAUUUGUGUGUAGGCUGGGAAUUCUUGCUGAAGGAAUUGG", "bound/input enrichment [ratio]": 0.476}
{"Sequence": "UCCGAUGAACAAGAAGAUGAGGAUGCUGUAGUCAACAGGAUAUCGUUGUUUCUGAGCACCUUCACUCCCGCCGUGUCAGCUGGCGCGGUUUUGCUUUUACCCUUCUCAAUCAUCAGCAAU", "bound/input enrichment [ratio]": 0.13}
{"Sequence": "CUUGAUUAUCUCAAGAGGGAAUGCGAGGCAAAAAGUGAAGUUAUGUUUUUUGCUGAUGCUACCCGCCACUUGGAAGAGAAGAAGAGGAAGAGGAAAAAGAGGGAGAAGUUGAUUCUAACG", "bound/input enrichment [ratio]": 0.212}
{"Sequence": "AAGUCUUGCUAGAAUUUUUUCUAAUCUUUAGUAGAUUUGAUUAAAUAAUGAUUCACAGAAUUCCGUAACAGAAUCAAACUAAGCCAUGUAUGAGGGUAAUCGAGAUGAGGAUAUUAACUC", "bound/input enrichment [ratio]": 0.513}
{"data": "Study 2", "target": "RNA binding protein fox-1 homolog 2, RRM domain, GST-SBP tag (RBFOX2, Homo sapiens, UniProt O43251-10, residues 100-194)", "method": "RNA Bind-n-Seq", "molecule type": "RNA", "matrix": "in vitro", "concentration": "365 nM", "setting": "natural RNA segment, single round, ends assumed", "reference": "no-protein control", "direction": "higher = stronger binding", "all sequences stand within": "GGGAGUUCUACAGUCCGACGAUC … UGGAAUUCUCGGGUGCCAA", "Residues (chain)": "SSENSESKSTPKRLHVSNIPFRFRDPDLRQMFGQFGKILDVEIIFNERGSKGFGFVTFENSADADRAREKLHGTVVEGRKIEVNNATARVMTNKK"}
{"Sequence": "ACUCAGCGUGACCCAACUUUUCUAGUGUGCCACGGCCCCACCACCUCCUGCAGUACCCACACCAUCACCACUGCUUUCUCUUCCAACAGUGAUCUGUAUUCUUAGUUUCA", "RBNS enrichment (R)": 0.896}
{"Sequence": "CCUAGUGUCUUGGUUUACACAAUAUGACAACUGUAACUGUACUUUAGCUAUUGUUUGCCUGCACAUACAUGUUGUAAUAUGCACAGUGAUUACAACCUUUAAAGCAAGAG", "RBNS enrichment (R)": 2.61}
{"Sequence": "UCCUUGCUGACCUCCUGUCUCCCUAGAGCACAAACAGGAGGGGGCAAGCCCCUUGAAGGUUUGGAUGGGAUGAGAUGGACAGUUACUGUAAUGAAGGACAAAGGGAACCA", "RBNS enrichment (R)": 1.19}
{"Sequence": "GGAAAUGAAGCUUAAUCAUGGUCAGGUUUGAGAUCUUUUGCAGUGAAAUAAUUUUAUUUAAUAUAAAUGAUCACAUGUCCUCAAUCAUGAAUGAGGUAGGGAGCCUCUCU", "RBNS enrichment (R)": 0.28}
{"Sequence": "AAAGGGAAAAAGGUGGAUUCAGAACUAUGACUUCAGGGCCCAGCAGUGUUGAUAGAGCAGCAUAUUAGACAAACACACAGUUGUUAGUUUUCAGACAUUCGCUCACGGAC", "RBNS enrichment (R)": 1.08}
{"Sequence": "AGGGAGCCUGAUGCCCCCAAUUGGUAGUGAGAAUUUGGGGACCUCCCCAACCCCCGACCCCACAAACAGGGCCUCUGUAAUCCUCCAGCUAACUUCCUACAAACAUCUGC", "RBNS enrichment (R)": 0.306}
{"Sequence": "CUUAGAAAGAGUCAUAAGAAAAAAAAAAAGACAUUUUAUUGUAAAUAACUUACAAGUGAAAUUAAGAAAACAUAAGAUUUAGUCUUACAGUUUCUAAAUAUAUGAUUUGU", "RBNS enrichment (R)": 0.599}
{"Sequence": "UUAAACAGAUAAAGCCCUUCAUGGUCCUGGCUGAGGAAGAGUCUUGCUAGGGGGAUUCAGGGAAGACCCGUGUUACCAGCUCUUACCCUUUAUCUGGACAGCUCUCCUAC", "RBNS enrichment (R)": 0.57}
{"data": "Study 3", "target": "Prothrombin, mature alpha-thrombin (F2, Homo sapiens, UniProt P00734)", "method": "aptamer microarray, sandwich", "molecule type": "DNA with 2'F-ANA", "matrix": "in vitro", "concentration": "200 nM", "setting": "whole 15-mer aptamer, many near background", "with": "Cy3 exosite-II aptamer, 400 nM", "direction": "higher = stronger binding", "sequence": "GGTTGGTGTGGTTGG"}
{"Modification": "2'F-ANA at 1 3 5 8", "mean fluorescence intensity [a.u.]": 68.8}
{"Modification": "2'F-ANA at 2 5 10 13 14 15", "mean fluorescence intensity [a.u.]": 84.2}
{"Modification": "2'F-ANA at 2 3 5 6 8 11 12 13", "mean fluorescence intensity [a.u.]": 147}
{"Modification": "2'F-ANA at 1 2 4 5 9 11 14 15", "mean fluorescence intensity [a.u.]": 47.1}
{"Modification": "2'F-ANA at 5 9 12", "mean fluorescence intensity [a.u.]": 172}
{"Modification": "2'F-ANA at 6 8 10 14", "mean fluorescence intensity [a.u.]": 107}
{"Modification": "2'F-ANA at 2 5 6 11 15", "mean fluorescence intensity [a.u.]": 56}
{"Modification": "2'F-ANA at 1 3 4 5 6 9 11 13 14 15", "mean fluorescence intensity [a.u.]": 46.9}
{"Modification": "2'F-ANA at 1 6 7 8 10 12 15", "mean fluorescence intensity [a.u.]": 72.4}
{"Modification": "2'F-ANA at 2 3 4 5 6 10 12 13 14 15", "mean fluorescence intensity [a.u.]": 55.2}
{"Modification": "2'F-ANA at 2 4 5 9 11 15", "mean fluorescence intensity [a.u.]": 55.2}
{"Modification": "2'F-ANA at 2 3 7 8 9 11 13 14 15", "mean fluorescence intensity [a.u.]": 387}
{"Modification": "2'F-ANA at 5 6 8 9 10 11 13 14", "mean fluorescence intensity [a.u.]": 57.6}
{"Modification": "2'F-ANA at 1 3 5 7 8 11 13 15", "mean fluorescence intensity [a.u.]": 56.4}
{"Modification": "2'F-ANA at 1 3 4 5 6 7 9 10 11 13", "mean fluorescence intensity [a.u.]": 46.7}
{"Modification": "2'F-ANA at 2 3 4 7 9 10 12 14 15", "mean fluorescence intensity [a.u.]": 305}
{"Modification": "2'F-ANA at 3 5 6 8 12 13 14 15", "mean fluorescence intensity [a.u.]": 72.8}
{"Modification": "2'F-ANA at 1 3 4 5 6 7 8 13 14", "mean fluorescence intensity [a.u.]": 47.2}
{"Modification": "2'F-ANA at 2 4 5 6 7 8 11", "mean fluorescence intensity [a.u.]": 148}
{"Modification": "2'F-ANA at 1 4 6 7 10 11 13 14 15", "mean fluorescence intensity [a.u.]": 49.4}
{"Modification": "2'F-ANA at 3 5 8 9 10 12 14 15", "mean fluorescence intensity [a.u.]": 53.3}
{"Modification": "2'F-ANA at 3 6 7 9 12 14", "mean fluorescence intensity [a.u.]": 550}
{"Modification": "2'F-ANA at 1 2 3 5 6 9 10 11", "mean fluorescence intensity [a.u.]": 56.8}
{"Modification": "2'F-ANA at 1 8 10 11 15", "mean fluorescence intensity [a.u.]": 66.8}
{"Modification": "2'F-ANA at 1 3 4 5 6 7 8 13 15", "mean fluorescence intensity [a.u.]": 51.1}
{"data": "Study 4", "target": "Histone acetyltransferase KAT6A, winged helix 2, GST fusion (KAT6A, Homo sapiens, UniProt Q92794, residues 85-181)", "method": "protein binding microarray", "molecule type": "double-stranded DNA, one strand shown", "matrix": "in vitro", "concentration": "not given", "setting": "8-mer, flanks averaged, mean of 2 arrays, mostly near background", "reference": "not given", "direction": "higher = stronger binding", "Target sequence (chain)": "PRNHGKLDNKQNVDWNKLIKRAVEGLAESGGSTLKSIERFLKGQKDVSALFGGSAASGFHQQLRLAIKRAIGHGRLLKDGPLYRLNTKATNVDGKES"}
{"Sequence": "CCGCGACG", "E-score": 0.172}
{"Sequence": "AAGTGGCC", "E-score": -0.088}
{"Sequence": "GCGAATAC", "E-score": 0.0197}
{"Sequence": "CGATGCGC", "E-score": 0.24}
{"Sequence": "CCAAAGTA", "E-score": -0.0305}
{"Sequence": "GTTTCTTA", "E-score": 0.127}
{"Sequence": "ATACCAAT", "E-score": -0.164}
{"Sequence": "GTAGATAA", "E-score": 0.101}
{"Sequence": "GCTGGTTA", "E-score": -0.0211}
{"Sequence": "TCGTCACA", "E-score": 0.00843}
{"Sequence": "AGAAATCT", "E-score": 0.0201}
{"Sequence": "TATTTGAA", "E-score": 0.0392}
{"Sequence": "AACACCGA", "E-score": -0.067}
{"Sequence": "CCTGTTAG", "E-score": -0.0612}
{"Sequence": "GACAAGTA", "E-score": -0.139}
{"Sequence": "AATCGTGC", "E-score": 0.0833}
{"Sequence": "GAGTCGAC", "E-score": -0.203}
{"Sequence": "CTACGTGC", "E-score": -0.282}
{"Sequence": "ATGAATAC", "E-score": -0.143}
{"Sequence": "AGCTACCT", "E-score": -0.00969}
{"Sequence": "AGACTATA", "E-score": 0.0538}
{"Sequence": "AAGGAAGA", "E-score": 0.0144}
{"Sequence": "AATTTTAT", "E-score": 0.248}
{"Sequence": "ACGGATAT", "E-score": 0.0619}
{"data": "Study 5", "target": "Sal-like protein 4, full length isoform B (SALL4, Homo sapiens, UniProt Q9UJQ4-2, residues 1-616)", "method": "universal PBM", "molecule type": "double-stranded DNA, one strand shown", "matrix": "in vitro", "concentration": "not given", "setting": "8-mer, flanks averaged, mean of replicates", "direction": "higher = stronger binding"}
{"Sequence": "CCAATAGG", "E-score": 0.0666}
{"Sequence": "GGATGGTA", "E-score": 0.151}
{"Sequence": "AGCCTTAA", "E-score": -0.0461}
{"Sequence": "GAGCCTCC", "E-score": -0.193}
{"Sequence": "CTCACATC", "E-score": -0.00388}
{"Sequence": "CTCTAGCC", "E-score": -0.064}
{"Sequence": "AGTGCTGG", "E-score": -0.146}
{"Sequence": "ACTATCTA", "E-score": 0.183}
{"Sequence": "ACGATTTG", "E-score": 0.016}
{"Sequence": "AAGTCTAT", "E-score": 0.109}
{"Sequence": "TACGAATA", "E-score": 0.301}
{"Sequence": "GACAACAA", "E-score": 0.117}
{"Sequence": "ACGCGGAC", "E-score": -0.0868}
{"Sequence": "CTGACACC", "E-score": -0.116}
{"Sequence": "TGTTGCAA", "E-score": 0.119}
{"Sequence": "ATTCAGAG", "E-score": -0.0325}
{"Sequence": "CAAGGAAA", "E-score": 0.0225}
{"Sequence": "ACGTACCG", "E-score": -0.0982}
{"note": "A few entries again (study 3):"}
{"Modification": "2'F-ANA at 1 4 6 7 10 11 13 14 15", "mean fluorescence intensity [a.u.]": 49.4}
{"Modification": "2'F-ANA at 1 3 5 7 8 11 13 15", "mean fluorescence intensity [a.u.]": 56.4}
{"Modification": "2'F-ANA at 6 8 10 14", "mean fluorescence intensity [a.u.]": 107}
{"Modification": "2'F-ANA at 1 2 4 5 9 11 14 15", "mean fluorescence intensity [a.u.]": 47.1}
